{"data": "Measurements pooled from the literature", "note": "Each numbered part is a random draw from the data of one study; scales do not carry over between parts. Values joined by “and” are separate records of one study, mostly repeats; a detail may differ."}
{"data": "Study 1", "target": "Replicase polyprotein 1ab, main protease (rep, Severe acute respiratory syndrome coronavirus 2, UniProt P0DTD1)", "read-out": "enzyme activity", "mode": "inhibitor", "tested at": "20 µM", "notes": "hit confirmation, with DTT"}
{"SMILES": "CCCC[C@H](NC(=O)[C@@H]1[C@@H]2[C@H](CN1C(=O)[C@@H](NC(=O)NC1(CS(=O)(=O)C(C)(C)C)CCCCC1)C(C)(C)C)C2(C)C)C(=O)C(=O)NC1CC1", "inhibition [%]": 58.9}
{"SMILES": "O=C(O)C(=O)CBr", "inhibition [%]": -18.7}
{"SMILES": "O=C1OC2(c3ccccc31)c1cc(Br)c(O)c(Br)c1Oc1c2cc(Br)c(O)c1Br", "inhibition [%]": 21.3}
{"SMILES": "CN(CCCN1c2ccccc2CCc2ccccc21)CC(=O)c1ccc(Cl)cc1", "inhibition [%]": -24.1}
{"SMILES": "O=C1C(=Cc2cccnc2)C(=O)c2ccccc21", "inhibition [%]": 60.4}
{"data": "Study 2", "target": "Histone acetyltransferase KAT6A, winged helix 2, GST fusion (KAT6A, Homo sapiens, UniProt Q92794, residues 85-181)", "method": "protein binding microarray", "molecule type": "double-stranded DNA, one strand shown", "matrix": "in vitro", "tested at": "not given", "notes": "8-mer, flanks averaged, mean of 2 arrays, mostly near background", "baseline": "not given", "reading": "higher = stronger binding", "Construct (chain)": "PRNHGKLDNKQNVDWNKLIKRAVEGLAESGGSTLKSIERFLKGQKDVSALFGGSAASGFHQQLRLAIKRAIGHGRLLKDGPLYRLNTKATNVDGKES"}
{"Sequence": "AGGGTAAT", "E-score": -0.116}
{"Sequence": "AGTGGGAC", "E-score": 0.0198}
{"Sequence": "TCAACGGA", "E-score": -0.0743}
{"Sequence": "AGTTGACC", "E-score": 0.0684}
{"Sequence": "ACATCCAC", "E-score": 0.0419}
{"Sequence": "CGAGATGC", "E-score": 0.0786}
{"Sequence": "CGGACTCA", "E-score": -0.101}
{"Sequence": "CACTCCTA", "E-score": -0.0537}
{"data": "Study 3", "target": "Sal-like protein 4, full length isoform B (SALL4, Homo sapiens, UniProt Q9UJQ4-2, residues 1-616)", "method": "universal PBM", "molecule type": "double-stranded DNA, one strand shown", "matrix": "in vitro", "tested at": "not given", "notes": "8-mer, flanks averaged, mean of replicates", "reading": "higher = stronger binding", "Residues (chain)": "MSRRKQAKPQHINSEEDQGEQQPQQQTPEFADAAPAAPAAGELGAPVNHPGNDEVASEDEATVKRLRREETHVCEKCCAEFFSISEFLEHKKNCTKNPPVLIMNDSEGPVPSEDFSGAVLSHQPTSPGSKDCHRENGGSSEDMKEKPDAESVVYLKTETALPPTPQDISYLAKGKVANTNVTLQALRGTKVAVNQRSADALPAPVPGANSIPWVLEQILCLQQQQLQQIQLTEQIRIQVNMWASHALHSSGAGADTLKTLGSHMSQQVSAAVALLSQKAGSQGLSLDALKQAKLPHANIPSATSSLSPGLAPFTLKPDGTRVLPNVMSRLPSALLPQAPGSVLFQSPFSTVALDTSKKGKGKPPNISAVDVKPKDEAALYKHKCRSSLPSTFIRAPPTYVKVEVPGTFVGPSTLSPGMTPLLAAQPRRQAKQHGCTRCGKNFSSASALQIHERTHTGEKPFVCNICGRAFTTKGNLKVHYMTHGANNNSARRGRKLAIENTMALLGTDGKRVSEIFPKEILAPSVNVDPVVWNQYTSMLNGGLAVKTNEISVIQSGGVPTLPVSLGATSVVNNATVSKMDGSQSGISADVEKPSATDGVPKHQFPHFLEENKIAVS"}
{"Sequence": "AAGACACC", "E-score": -0.243}
{"Sequence": "AAATGGAT", "E-score": 0.192}
{"Sequence": "GAGTTCCC", "E-score": -0.263}
{"Sequence": "GGATTGCA", "E-score": 0.0263}
{"Sequence": "TAGGTGGA", "E-score": 0.162}
{"Sequence": "CCAAACGG", "E-score": -0.293}
{"Sequence": "CACGAATC", "E-score": -0.165}
{"Sequence": "ACTCTATA", "E-score": 0.212}
{"data": "Study 4", "target": "Replicase polyprotein 1ab, nsp13 helicase (rep, Severe acute respiratory syndrome coronavirus 2, UniProt P0DTD1)", "mode": "inhibitor", "tested at": "20 µM"}
{"Compound": "CNC(=O)c1ccccc1Nc1nc(Nc2ccc3c(c2OC)CCC[C@H](N2CCN(CCO)CC2)C3)ncc1Cl", "inhibition": "2.5%"}
{"Compound": "NC[C@H]1O[C@H](O[C@H]2[C@H](O)[C@@H](O[C@H]3O[C@H](CO)[C@@H](O)[C@H](N)[C@H]3O)[C@H](N)C[C@@H]2N)[C@H](O)[C@@H](O)[C@@H]1O", "inhibition": "5.42%"}
{"Compound": "CC(C)(C)c1ccc2cc(C#N)c(C#N)cc2c1", "inhibition": "6.19%"}
{"Compound": "CC(C)C(=O)c1ccc(O)c(O)c1", "inhibition": "-0.45%"}
{"Compound": "CC[C@H](Nc1ncnc2[nH]cnc12)c1nc2cccc(F)c2c(=O)n1-c1ccccc1", "inhibition": "0.89%"}
{"Compound": "Nc1nccc2c1ncn2[C@@H]1O[C@H](CO)[C@@H](O)[C@H]1O", "inhibition": "5.57%"}
{"Compound": "Cn1cc(C2=C(c3cn(CCCSC(=N)N)c4ccccc34)C(=O)NC2=O)c2ccccc21", "inhibition": "57.9%"}
{"Compound": "CC(C)NC(=N)NC(=N)Nc1ccc(Cl)cc1", "inhibition": "2.15%"}
{"Compound": "CCCOc1ccc2c(c1)CC[C@@H]1[C@@H]2CC[C@]2(C)[C@@H](OC)CC[C@@H]12", "inhibition": "5.89%"}
{"Compound": "O=C(NCCCN1CCCCCC1)C(c1ccccc1)C1CCCCC1 (stereo not drawn)", "inhibition": "-3.39%"}
{"Compound": "COc1cc2c(cc1OC)CN(C(=O)[C@@H](NCc1ccncc1)C(C)(C)C)CC2", "inhibition": "-1.12%"}
{"Compound": "O=C(O)c1cc2ccccc2s1", "inhibition": "3.72%"}
{"Compound": "C[C@H](c1ccc(F)cc1CCCC(=O)O)N(c1cc(F)ccc1F)S(=O)(=O)c1ccc(Cl)cc1", "inhibition": "4.28%"}
{"Compound": "CCOC(=O)[C@H](CCc1ccccc1)N[C@H]1CS[C@H](c2cccs2)CN(CC(=O)O)C1=O", "inhibition": "4.32%"}
{"Compound": "O=C1C[C@@H](c2ccc(O)cc2)Oc2cc(O)cc(O)c21", "inhibition": "1.49%"}
{"Compound": "C=CC1=C(C)c2cc3[nH]c(cc4nc(cc5[nH]c(cc1n2)c(C)c5CCC(=O)O)C(CCC(=O)O)=C4C)c(C)c3C=C", "inhibition": "90.1%"}
{"Compound": "C=CCN1C[C@H](C)N([C@H](c2ccc(C(=O)N(CC)CC)cc2)c2cccc(OC)c2)C[C@H]1C", "inhibition": "8.19%"}
{"Compound": "COc1ccc(NS(=O)(=O)c2ccc(N)cc2)nn1", "inhibition": "3.02%"}
{"Compound": "CC(=O)OCC1=C(C(=O)O)N2C(=O)[C@@H](NC(=O)Cc3cccs3)[C@H]2SC1", "inhibition": "8.15%"}
{"Compound": "O=C(O)c1cn(C2CC2)c2cc(N3CCNCC3)c(F)cc2c1=O", "inhibition": "2.73%"}
{"Compound": "Cc1c(Cl)cccc1Nc1ccccc1C(=O)O", "inhibition": "5.37%"}
{"Compound": "CCN(Cc1ccc(Cl)nc1)/C(=C/[N+](=O)[O-])NC", "inhibition": "1.2%"}
{"Compound": "O=C(c1ccc2nccnc2c1)N1CCCCC1", "inhibition": "-0.71% and 6.04%"}
{"Compound": "O=C[C@H](F)[C@@H](O)[C@@H](O)[C@H](O)CO", "inhibition": "4.92%"}
{"data": "Study 5", "cell line": "HEK-293T/ACE2", "tested at": "concentration not given", "time": "16 (unit not given)", "baseline": "vehicle"}
{"Compound": "CN(C)c1ccc(C(=C2C=CC(=[N+](C)C)C=C2)c2ccc(N(C)C)cc2)cc1", "viability [%]": 82.2}
{"Compound": "CC(=O)O[C@]1(C(C)=O)CC[C@H]2[C@@H]3CCC4=CC(=O)CCC4=C3[C@@H](c3ccc(N(C)C)cc3)C[C@@]21C", "viability [%]": 99.4}
{"Compound": "COc1c(C)c2c(c(O)c1C/C=C(\\C)CCC(=O)O)C(=O)OC2", "viability [%]": 93.3}
{"note": "For quick reference, copied from above (study 4):"}
{"Compound": "O=C(O)c1cc2ccccc2s1", "inhibition": "3.72%"}
{"Compound": "CCCOc1ccc2c(c1)CC[C@@H]1[C@@H]2CC[C@]2(C)[C@@H](OC)CC[C@@H]12", "inhibition": "5.89%"}
{"Compound": "C=CC1=C(C)c2cc3[nH]c(cc4nc(cc5[nH]c(cc1n2)c(C)c5CCC(=O)O)C(CCC(=O)O)=C4C)c(C)c3C=C", "inhibition": "90.1%"}
{"Compound": "COc1ccc(NS(=O)(=O)c2ccc(N)cc2)nn1", "inhibition": "3.02%"}
{"Compound": "CNC(=O)c1ccccc1Nc1nc(Nc2ccc3c(c2OC)CCC[C@H](N2CCN(CCO)CC2)C3)ncc1Cl", "inhibition": "2.5%"}
